Measurements of several laboratories.
Protocols differ between the studies behind these lines.
Ugcg: Ceramide glucosyltransferase (Ugcg, Mus musculus, UniProt O88693)
UniProt O88693, sequence (whole entry, looked up): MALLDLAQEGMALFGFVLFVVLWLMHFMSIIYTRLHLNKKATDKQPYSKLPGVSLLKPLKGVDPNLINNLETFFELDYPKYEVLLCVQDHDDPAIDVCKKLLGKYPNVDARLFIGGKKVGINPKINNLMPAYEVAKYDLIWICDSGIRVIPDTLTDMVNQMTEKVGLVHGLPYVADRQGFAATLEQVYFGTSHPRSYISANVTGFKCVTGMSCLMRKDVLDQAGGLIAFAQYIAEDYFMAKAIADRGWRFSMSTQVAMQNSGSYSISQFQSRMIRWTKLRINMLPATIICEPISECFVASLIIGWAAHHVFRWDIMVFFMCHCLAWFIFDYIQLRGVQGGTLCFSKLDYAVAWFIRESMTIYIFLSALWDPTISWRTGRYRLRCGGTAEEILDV
UniProt Q9UM73, sequence (whole entry, unmodified, looked up): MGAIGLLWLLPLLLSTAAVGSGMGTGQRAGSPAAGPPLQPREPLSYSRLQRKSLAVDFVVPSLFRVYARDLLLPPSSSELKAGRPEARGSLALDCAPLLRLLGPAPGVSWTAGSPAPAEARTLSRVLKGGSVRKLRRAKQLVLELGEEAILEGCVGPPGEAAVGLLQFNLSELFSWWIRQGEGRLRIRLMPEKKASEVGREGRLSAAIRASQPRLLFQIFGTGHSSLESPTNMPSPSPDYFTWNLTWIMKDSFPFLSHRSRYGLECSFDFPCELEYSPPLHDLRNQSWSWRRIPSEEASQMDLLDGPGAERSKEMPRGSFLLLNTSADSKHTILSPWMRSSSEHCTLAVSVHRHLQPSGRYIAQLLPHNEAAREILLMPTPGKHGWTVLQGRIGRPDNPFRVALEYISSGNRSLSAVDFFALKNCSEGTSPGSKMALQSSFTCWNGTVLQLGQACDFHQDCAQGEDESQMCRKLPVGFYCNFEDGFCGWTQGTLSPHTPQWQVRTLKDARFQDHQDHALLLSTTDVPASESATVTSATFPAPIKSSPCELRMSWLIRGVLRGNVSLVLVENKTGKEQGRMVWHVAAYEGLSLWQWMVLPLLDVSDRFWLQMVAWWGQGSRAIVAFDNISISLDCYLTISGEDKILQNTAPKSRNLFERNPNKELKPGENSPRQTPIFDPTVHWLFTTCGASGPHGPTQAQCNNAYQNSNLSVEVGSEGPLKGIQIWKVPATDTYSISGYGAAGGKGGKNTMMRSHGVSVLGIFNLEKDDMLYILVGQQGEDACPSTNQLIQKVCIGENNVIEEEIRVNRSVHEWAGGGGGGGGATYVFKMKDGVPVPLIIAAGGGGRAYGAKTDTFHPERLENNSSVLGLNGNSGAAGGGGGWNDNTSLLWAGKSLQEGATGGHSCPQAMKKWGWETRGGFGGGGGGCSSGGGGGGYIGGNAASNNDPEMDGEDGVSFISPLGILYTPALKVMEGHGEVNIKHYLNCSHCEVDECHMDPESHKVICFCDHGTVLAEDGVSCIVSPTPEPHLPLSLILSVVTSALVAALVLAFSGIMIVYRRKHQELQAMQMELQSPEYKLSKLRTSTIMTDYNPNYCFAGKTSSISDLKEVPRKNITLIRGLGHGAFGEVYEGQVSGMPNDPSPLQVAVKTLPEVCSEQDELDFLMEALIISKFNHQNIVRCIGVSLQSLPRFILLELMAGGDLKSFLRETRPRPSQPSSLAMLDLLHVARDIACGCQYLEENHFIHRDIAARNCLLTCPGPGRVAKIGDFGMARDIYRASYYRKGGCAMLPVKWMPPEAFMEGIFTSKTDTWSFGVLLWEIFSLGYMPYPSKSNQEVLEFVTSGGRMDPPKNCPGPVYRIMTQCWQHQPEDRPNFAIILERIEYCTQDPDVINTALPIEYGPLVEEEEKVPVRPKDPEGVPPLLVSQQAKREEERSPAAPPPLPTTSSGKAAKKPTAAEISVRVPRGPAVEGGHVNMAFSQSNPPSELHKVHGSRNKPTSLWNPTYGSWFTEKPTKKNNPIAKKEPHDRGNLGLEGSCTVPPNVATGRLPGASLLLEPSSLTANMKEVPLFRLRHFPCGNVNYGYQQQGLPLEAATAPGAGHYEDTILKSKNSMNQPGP
UniProt Q92847, sequence (whole entry, looked up): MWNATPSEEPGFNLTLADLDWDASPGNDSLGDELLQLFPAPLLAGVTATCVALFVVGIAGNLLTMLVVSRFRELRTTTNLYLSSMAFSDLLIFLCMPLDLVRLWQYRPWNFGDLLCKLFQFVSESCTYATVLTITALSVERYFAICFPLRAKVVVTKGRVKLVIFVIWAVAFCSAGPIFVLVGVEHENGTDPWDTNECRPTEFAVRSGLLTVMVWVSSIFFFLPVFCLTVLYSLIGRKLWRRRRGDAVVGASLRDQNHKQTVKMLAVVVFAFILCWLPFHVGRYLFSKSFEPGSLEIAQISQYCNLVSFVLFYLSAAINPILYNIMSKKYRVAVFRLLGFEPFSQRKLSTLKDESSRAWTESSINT
UniProt P35462, sequence (whole entry, looked up): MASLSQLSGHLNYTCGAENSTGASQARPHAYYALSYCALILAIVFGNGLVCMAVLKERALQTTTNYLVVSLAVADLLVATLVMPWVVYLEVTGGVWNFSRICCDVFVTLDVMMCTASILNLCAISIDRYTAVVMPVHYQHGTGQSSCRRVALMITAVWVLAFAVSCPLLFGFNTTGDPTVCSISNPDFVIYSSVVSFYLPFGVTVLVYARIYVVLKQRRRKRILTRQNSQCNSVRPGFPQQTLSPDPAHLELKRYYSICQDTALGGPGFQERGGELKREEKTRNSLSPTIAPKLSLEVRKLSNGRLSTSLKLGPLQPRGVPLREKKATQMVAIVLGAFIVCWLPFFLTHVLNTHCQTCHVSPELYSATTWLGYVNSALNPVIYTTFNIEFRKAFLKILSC
UniProt P43250, sequence (whole entry, looked up): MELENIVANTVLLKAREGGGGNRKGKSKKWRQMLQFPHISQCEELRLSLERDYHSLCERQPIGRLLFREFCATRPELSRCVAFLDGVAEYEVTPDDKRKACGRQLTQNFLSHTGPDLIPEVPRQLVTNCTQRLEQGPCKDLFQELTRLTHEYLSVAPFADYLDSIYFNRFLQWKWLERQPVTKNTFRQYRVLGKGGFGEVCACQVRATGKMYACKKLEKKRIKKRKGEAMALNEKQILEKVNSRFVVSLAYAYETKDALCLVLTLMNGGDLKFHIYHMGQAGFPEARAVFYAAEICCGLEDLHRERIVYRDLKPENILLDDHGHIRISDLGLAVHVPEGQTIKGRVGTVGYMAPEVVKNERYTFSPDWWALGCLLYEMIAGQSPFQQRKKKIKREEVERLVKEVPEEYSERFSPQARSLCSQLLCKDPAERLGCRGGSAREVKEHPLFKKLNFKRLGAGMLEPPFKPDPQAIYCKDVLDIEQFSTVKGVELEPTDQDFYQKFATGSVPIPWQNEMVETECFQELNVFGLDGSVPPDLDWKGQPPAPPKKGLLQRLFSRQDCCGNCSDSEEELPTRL
UniProt P00761, sequence (whole entry, looked up): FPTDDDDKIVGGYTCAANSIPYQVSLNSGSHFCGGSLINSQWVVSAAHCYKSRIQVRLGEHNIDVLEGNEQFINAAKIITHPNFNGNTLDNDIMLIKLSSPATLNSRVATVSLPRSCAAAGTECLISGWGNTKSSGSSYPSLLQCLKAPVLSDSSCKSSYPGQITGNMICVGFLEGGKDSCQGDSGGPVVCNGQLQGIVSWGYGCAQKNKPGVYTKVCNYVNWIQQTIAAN

OB(O)c1ccc(OCc2ccccc2)nc1F  Ki (Trypsin (Sus scrofa, UniProt P00761); enzyme activity, inhibitor): > 5000 µM
CCCNC(=O)C1CCCN(CCOc2ccc(Cl)cc2)C1 (stereo not shown)  Ki (D(3) dopamine receptor (DRD3, Homo sapiens, UniProt P35462); ligand displacement, radioligand): 0.335 µM
Cc1nn(-c2cccc(N)c2)c(=O)c2cnc(Nc3ccc(N4CCNCC4)cc3)nc12  IC50 (G protein-coupled receptor kinase 6 (GRK6, Homo sapiens, UniProt P43250); kinase activity, inhibitor, SelectScreen kinase profiling): > 10 µM
N#CCNC(=O)c1ccc([C@H]2[C@@H](F)[C@@H](F)C[C@@H](F)[C@H]2F)cc1  hepatic clearance (hepatocyte stability; cryopreserved human hepatocytes; 1 µM): 6.9 mL/min/kg
CCn1nc(Cl)c2c1-c1cnc(N)c(c1)O[C@H](C)c1cc(F)ccc1-c1nn(C)cc1C2  IC50 (ALK tyrosine kinase receptor (ALK, Homo sapiens, UniProt Q9UM73, I1171N); enzyme activity, inhibitor; added: 1 mM ATP): 0.0034 µM
CCCCCNC(=O)C1C(O)C(O)C(O)C(CO)N1CCCC (stereo not shown)  IC50 (Ugcg; enzyme activity, inhibitor, fluorescence): 4 µM
COc1ccc(C(=O)c2c(C(=O)NCCCN(C)C)oc3ccc(Cl)cc3c2=O)cc1OC  EC50 (Growth hormone secretagogue receptor type 1 (GHSR, Homo sapiens, UniProt Q92847); β-arrestin 2 recruitment, NanoBiT; HEK293T): 0.182 µM
Nc1ncc(-c2cc(-c3cnn(CC(F)(F)F)c3)ncc2F)nc1C(=O)NC1CNCC(F)C1 (stereo not shown)  remaining binding (PRP4; KINOMEscan; 1 µM; relative to: DMSO control): 95%
COCC1CN(C2CCN(c3cc(OC)c(Nc4ncc(Br)c(Nc5ccc6c(c5P(C)(C)=O)OCCO6)n4)cc3C)CC2)C1  IC50 (Epidermal growth factor receptor (EGFR, Homo sapiens, UniProt P00533, C797S/del746-750/T790M); kinase activity, TR-FRET; added: ATP at Km): 0.00018 µM
OC[C@@H]1[C@@H](O)[C@H](O)[C@@H](O)CN1CCCCCOCCC12CC3CC(CC(C3)C1)C2  IC50 (Ugcg; enzyme activity, inhibitor, fluorescence): 5 µM
C=CC(=O)Nc1cccc(Cn2ncc3cnc(Nc4cnn(CCOC)c4)nc32)c1  percent of control (PAK2 human; binding, KINOMEscan; 100 nM; lower = stronger binding): 83%
CCCCCCCOCCCCCN1C[C@H](O)[C@@H](O)[C@H](O)[C@@H]1CO  IC50 (Ugcg; enzyme activity, inhibitor, fluorescence): 0.05 µM
COC1CN([C@H]2CC[C@H]([C@@]3(C)Oc4c(Cl)cc(C(=O)NCc5c(SC)cc(C)[nH]c5=O)c(C)c4O3)CC2)C1  log2 fold change (RNA-seq, refers to: PLEKHH2 mouse homolog; mouse, HT-1376 xenograft, whole blood; dose not given; relative to: vehicle): 4.8
